Experimental data collected from several papers.
A part holds a random share of what one study measured.
Sequence of UniProt P15056 (whole entry, unmodified, looked up): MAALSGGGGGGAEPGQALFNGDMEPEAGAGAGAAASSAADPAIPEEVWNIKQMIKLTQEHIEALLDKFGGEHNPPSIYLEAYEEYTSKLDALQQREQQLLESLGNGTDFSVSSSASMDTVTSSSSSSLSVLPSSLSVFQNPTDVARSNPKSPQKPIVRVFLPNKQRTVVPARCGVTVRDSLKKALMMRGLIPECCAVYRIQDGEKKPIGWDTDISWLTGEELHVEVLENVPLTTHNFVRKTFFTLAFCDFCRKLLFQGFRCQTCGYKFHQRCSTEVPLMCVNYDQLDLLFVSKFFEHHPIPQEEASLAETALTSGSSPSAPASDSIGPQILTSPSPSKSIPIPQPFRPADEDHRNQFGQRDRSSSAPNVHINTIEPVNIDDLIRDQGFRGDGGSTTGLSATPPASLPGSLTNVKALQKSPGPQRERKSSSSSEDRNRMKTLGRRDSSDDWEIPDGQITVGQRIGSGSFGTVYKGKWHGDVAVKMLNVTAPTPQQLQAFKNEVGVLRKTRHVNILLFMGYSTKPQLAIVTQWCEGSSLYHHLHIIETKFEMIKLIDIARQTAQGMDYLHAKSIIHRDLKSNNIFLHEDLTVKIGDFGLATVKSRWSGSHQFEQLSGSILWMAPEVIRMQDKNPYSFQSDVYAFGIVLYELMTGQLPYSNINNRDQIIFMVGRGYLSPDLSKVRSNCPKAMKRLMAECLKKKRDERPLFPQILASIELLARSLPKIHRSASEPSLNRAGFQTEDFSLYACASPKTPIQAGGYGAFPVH
Sequence of UniProt P06493 (whole entry, looked up): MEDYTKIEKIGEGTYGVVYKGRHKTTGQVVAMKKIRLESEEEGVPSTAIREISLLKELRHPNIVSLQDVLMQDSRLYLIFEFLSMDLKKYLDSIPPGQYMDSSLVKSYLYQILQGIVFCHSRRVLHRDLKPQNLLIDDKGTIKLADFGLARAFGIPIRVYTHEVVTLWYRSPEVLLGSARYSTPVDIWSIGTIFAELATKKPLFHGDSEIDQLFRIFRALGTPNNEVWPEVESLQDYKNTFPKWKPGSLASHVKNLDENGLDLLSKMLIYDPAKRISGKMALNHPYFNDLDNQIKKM
Sequence of UniProt Q00535 (whole entry, looked up): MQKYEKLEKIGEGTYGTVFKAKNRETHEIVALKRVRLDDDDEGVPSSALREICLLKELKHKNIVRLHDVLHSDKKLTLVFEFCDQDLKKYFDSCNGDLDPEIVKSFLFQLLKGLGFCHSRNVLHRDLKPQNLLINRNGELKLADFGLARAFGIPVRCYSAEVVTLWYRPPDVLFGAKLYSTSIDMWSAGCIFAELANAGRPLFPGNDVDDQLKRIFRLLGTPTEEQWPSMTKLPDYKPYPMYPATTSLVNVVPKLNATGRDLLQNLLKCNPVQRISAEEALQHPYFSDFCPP
Sequence of UniProt P23443 (whole entry, looked up): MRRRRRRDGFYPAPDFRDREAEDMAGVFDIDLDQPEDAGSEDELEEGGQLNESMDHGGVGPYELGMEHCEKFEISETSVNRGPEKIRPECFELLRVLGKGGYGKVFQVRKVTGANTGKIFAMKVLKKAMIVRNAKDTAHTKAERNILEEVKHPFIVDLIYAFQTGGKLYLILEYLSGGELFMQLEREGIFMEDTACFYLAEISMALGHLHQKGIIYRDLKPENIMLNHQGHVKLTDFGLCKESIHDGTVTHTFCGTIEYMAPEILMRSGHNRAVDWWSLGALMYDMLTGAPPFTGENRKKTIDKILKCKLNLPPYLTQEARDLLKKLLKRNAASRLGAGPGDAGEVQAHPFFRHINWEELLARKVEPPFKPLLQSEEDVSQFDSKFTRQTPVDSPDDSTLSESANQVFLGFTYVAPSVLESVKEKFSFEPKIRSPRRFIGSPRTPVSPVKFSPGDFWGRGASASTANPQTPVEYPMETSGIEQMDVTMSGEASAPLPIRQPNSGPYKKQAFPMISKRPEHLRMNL
Sequence of UniProt P49840 (whole entry, looked up): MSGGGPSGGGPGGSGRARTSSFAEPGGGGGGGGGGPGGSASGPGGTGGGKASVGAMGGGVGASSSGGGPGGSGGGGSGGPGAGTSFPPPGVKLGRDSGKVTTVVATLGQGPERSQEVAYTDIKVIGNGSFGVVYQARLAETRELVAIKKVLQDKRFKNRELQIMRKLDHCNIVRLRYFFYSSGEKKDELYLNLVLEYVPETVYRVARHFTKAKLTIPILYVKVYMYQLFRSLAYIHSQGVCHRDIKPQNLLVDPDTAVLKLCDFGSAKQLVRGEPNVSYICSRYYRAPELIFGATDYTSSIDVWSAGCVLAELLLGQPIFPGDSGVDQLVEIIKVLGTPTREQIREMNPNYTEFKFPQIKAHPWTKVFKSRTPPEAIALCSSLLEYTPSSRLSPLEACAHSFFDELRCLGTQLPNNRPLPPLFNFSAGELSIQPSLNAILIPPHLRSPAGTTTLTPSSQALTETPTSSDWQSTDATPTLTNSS
Sequence of UniProt P51813 (whole entry, looked up): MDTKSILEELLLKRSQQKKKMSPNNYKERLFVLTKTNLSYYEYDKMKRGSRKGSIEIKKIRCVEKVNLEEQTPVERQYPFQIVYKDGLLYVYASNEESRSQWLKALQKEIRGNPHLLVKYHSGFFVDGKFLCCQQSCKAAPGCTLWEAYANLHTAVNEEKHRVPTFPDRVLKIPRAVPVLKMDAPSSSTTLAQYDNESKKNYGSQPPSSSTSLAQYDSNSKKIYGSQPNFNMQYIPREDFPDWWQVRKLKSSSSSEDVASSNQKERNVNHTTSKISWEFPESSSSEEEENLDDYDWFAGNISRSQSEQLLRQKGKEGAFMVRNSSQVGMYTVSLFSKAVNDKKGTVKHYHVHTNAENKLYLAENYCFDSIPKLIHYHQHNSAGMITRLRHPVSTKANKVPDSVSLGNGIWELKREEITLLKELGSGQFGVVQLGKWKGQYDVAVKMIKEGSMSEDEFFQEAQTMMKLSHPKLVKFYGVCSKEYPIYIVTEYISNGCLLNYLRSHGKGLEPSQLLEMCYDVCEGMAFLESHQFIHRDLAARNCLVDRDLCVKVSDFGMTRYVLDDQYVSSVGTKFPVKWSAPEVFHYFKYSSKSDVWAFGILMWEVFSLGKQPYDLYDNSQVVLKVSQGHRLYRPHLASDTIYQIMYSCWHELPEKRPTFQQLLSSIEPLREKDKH
Sequence of UniProt O60285 (whole entry, looked up): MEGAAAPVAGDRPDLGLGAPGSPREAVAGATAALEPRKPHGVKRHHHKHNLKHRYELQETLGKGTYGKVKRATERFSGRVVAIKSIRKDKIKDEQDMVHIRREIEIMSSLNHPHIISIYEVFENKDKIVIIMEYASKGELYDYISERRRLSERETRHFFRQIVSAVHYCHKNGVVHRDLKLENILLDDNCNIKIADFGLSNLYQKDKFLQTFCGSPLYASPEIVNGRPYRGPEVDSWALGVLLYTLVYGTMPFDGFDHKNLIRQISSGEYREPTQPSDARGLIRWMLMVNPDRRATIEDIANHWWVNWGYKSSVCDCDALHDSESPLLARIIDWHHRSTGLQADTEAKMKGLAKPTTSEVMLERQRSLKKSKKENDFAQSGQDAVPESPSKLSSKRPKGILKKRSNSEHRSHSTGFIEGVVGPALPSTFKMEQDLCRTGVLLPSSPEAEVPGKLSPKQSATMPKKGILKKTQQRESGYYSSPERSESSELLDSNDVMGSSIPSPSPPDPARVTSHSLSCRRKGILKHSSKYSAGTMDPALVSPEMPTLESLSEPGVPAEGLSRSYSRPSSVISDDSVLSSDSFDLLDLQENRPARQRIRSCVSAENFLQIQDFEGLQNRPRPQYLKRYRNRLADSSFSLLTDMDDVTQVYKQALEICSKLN
Sequence of UniProt P68400 (whole entry, looked up): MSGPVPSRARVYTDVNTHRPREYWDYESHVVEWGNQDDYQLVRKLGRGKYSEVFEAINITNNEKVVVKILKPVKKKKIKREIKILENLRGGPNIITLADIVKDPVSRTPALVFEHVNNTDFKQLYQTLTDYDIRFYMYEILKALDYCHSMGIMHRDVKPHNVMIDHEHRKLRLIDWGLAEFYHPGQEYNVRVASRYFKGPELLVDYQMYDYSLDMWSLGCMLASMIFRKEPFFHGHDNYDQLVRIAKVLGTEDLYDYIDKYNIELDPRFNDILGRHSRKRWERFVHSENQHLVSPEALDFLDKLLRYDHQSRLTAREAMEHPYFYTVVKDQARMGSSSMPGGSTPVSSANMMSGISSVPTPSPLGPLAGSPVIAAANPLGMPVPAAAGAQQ
Sequence of UniProt Q9UQB9 (whole entry, looked up): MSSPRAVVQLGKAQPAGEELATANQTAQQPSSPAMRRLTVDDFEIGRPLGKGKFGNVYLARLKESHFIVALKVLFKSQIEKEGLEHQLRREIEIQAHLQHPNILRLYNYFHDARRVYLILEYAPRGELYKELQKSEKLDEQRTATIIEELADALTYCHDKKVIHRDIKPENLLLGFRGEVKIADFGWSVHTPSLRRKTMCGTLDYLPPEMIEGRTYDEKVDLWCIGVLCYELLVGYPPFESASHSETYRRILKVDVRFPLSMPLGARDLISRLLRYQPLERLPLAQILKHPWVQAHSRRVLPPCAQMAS
Sequence of UniProt P43250 (whole entry, looked up): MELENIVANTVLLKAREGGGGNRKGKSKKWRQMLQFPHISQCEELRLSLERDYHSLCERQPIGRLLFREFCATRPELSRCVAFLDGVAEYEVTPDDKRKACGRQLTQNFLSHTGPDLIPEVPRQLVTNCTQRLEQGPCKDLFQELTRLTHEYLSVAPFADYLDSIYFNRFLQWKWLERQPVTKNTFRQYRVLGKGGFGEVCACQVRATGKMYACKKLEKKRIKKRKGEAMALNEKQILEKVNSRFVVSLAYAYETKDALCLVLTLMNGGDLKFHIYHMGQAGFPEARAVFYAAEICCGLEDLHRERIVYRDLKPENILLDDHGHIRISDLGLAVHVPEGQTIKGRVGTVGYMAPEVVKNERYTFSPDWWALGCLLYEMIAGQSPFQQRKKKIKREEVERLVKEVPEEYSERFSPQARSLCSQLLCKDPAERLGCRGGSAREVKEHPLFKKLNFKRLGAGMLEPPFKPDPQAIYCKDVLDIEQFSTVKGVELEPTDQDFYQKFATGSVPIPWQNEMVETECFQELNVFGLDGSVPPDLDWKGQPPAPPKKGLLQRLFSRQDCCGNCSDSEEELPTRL

Block 1
SMILES: O=C(Nc1cccnn1)N1CC(C/C=C/c2cncc(Oc3ccc(C(F)(F)F)cn3)n2)C1
Method: competition with immobilised ligand
Tested at: 1 µM
target | read-out | remaining binding
BUB1 (Homo sapiens, UniProt O43683) | cell-free assay | 1.4%
PIK3CA (Homo sapiens, UniProt P42336, E545A) | cell-free assay | 75%
Tyrosine-protein kinase ABL1, non-phosphorylated (ABL1, Homo sapiens, UniProt P00519, F317I) | cell-free assay | 53%
TEK (Homo sapiens, UniProt Q02763) | cell-free assay | 84%
CSNK2A1 (Homo sapiens, UniProt P68400) | cell-free assay | 72%
GSK3A (Homo sapiens, UniProt P49840) | cell-free assay | 92%
FLT3 (Homo sapiens, UniProt P36888, R834Q) | cell-free assay | 66%
CDK5 (Homo sapiens, UniProt Q00535) | cell-free assay | 100%
MAP4K1 (Homo sapiens, UniProt Q92918) | cell-free assay | 98%
MATK (Homo sapiens, UniProt P42679) | cell-free assay | 59%
IGF1R (Homo sapiens, UniProt P08069) | cell-free assay | 100%
BRAF (Homo sapiens, UniProt P15056, V600E) | cell-free assay | 85%
TEC (Homo sapiens, UniProt P42680) | binding | 100%
Tyrosine-protein kinase ABL1, non-phosphorylated (ABL1, Homo sapiens, UniProt P00519, T315I) | cell-free assay | 60%
EPHB3 (Homo sapiens, UniProt P54753) | cell-free assay | 100%
BRAF (Homo sapiens, UniProt P15056) | cell-free assay | 100%
FLT3 (Homo sapiens, UniProt P36888, N841I) | cell-free assay | 62%
PTK2B (Homo sapiens, UniProt Q14289) | cell-free assay | 100%
TYRO3 (Homo sapiens, UniProt Q06418) | cell-free assay | 100%
Tyrosine-protein kinase JAK1, JH2 (JAK1, Homo sapiens, UniProt P23458) | cell-free assay | 95%
EPHA2 (Homo sapiens, UniProt P29317) | cell-free assay | 100%
CDK4 (Homo sapiens, UniProt P11802) | cell-free assay | 86%
ANKK1 (Homo sapiens, UniProt Q8NFD2) | cell-free assay | 73%
MAP3K5 (Homo sapiens, UniProt Q99683) | cell-free assay | 98%
PRKACA (Homo sapiens, UniProt P17612) | cell-free assay | 93%

Block 2
SMILES: O=C(Nc1cnn(-c2csc(C(=O)NC3COC3)c2)c1)Nc1c(F)cccc1Cl
Read-out: enzyme activity
Tested at: 5 µM
target | action | relative to | remaining activity [%]
NEK5 (Homo sapiens, UniProt Q6P3R8) |  | untreated control | 87.9
CSNK1G3 (Homo sapiens, UniProt Q9Y6M4) |  | untreated control | 91.2
DYRK2 (Homo sapiens, UniProt Q92630) |  | untreated control | 92
OXSR1 (Homo sapiens, UniProt O95747) |  | untreated control | 91.5
PRKX (Homo sapiens, UniProt P51817) |  | untreated control | 88.1
Cyclin-dependent kinase 1, with cyclin E (CDK1, Homo sapiens, UniProt P06493) |  | untreated control | 95
MAP3K11 (Homo sapiens, UniProt Q16584) |  | untreated control | 83.4
TYK2 (Homo sapiens, UniProt P29597) |  | untreated control | 88.7
FGFR3 (Homo sapiens, UniProt P22607) |  | untreated control | 91
Cyclin-dependent kinase 1, with cyclin A (CDK1, Homo sapiens, UniProt P06493) |  | untreated control | 86
Cyclin-dependent kinase 19, with cyclin C (CDK19, Homo sapiens, UniProt Q9BWU1) |  | untreated control | 93.3
RPS6KB1 (Homo sapiens, UniProt P23443) |  | untreated control | 97.6
Cyclin-dependent kinase 8, with cyclin C (CDK8, Homo sapiens, UniProt P49336) |  | untreated control | 98.8
STK33 (Homo sapiens, UniProt Q9BYT3) |  | untreated control | 80.3
Cyclin-dependent kinase 5, with p35 (CDK5, Homo sapiens, UniProt Q00535) |  | untreated control | 94.2
KSR2 (Homo sapiens, UniProt Q6VAB6) | inhibitor |  | 92.7
IRAK1 (Homo sapiens, UniProt P51617) |  | untreated control | 106
PKN3 (Homo sapiens, UniProt Q6P5Z2) | inhibitor |  | 74.3

Block 3
Compound: O=C1Nc2ccc(Br)cc2/C1=C/c1cc2c([nH]1)CCCC2
Read-out: enzyme activity
Action: inhibitor
Tested at: 0.5 µM
Relative to: control
target | remaining activity [%]
FGFR4 (Homo sapiens, UniProt P22455) | 77
BMX (Homo sapiens, UniProt P51813) | 89.9
RPS6KA1 (Homo sapiens, UniProt Q15418) | 70.4
Aurora kinase C (AURKC, Homo sapiens, UniProt Q9UQB9) | 86.3
NUAK1 (Homo sapiens, UniProt O60285) | 27.7
GRK6 (Homo sapiens, UniProt P43250) | 95.8
MYLK (Homo sapiens, UniProt Q15746) | 95.7
PAK2 (Homo sapiens, UniProt Q13177) | 90
FLT3 (Homo sapiens, UniProt P36888) | 3.86
PRKCE (Homo sapiens, UniProt Q02156) | 99.1
PIM2 (Homo sapiens, UniProt Q9P1W9) | 100
CSK (Homo sapiens, UniProt P41240) | 98.5
GSK3A (Homo sapiens, UniProt P49840) | 88.5
PRKCG (Homo sapiens, UniProt P05129) | 100
RPS6KB1 (Homo sapiens, UniProt P23443) | 91.9
EPHB2 (Homo sapiens, UniProt P29323) | 85.4
SGK1 (Homo sapiens, UniProt O00141) | 93.4
EPHA7 (Homo sapiens, UniProt Q15375) | 85.3
GRK2 (Homo sapiens, UniProt P25098) | 105
CSF1R (Homo sapiens, UniProt P07333) | 49.7
SRPK3 (Homo sapiens, UniProt Q9UPE1) | 77.8

Block 4
Cell line: HH
Tested at: 2 µM
Time: 48 h
Relative to: untreated
SMILES | viability
CN(c1ncccc1CNc1nc(Nc2ccc3c(c2)CC(=O)N3)ncc1C(F)(F)F)S(C)(=O)=O | 86%
Cn1cc(/C=C2\C(=O)Nc3cccnc32)c2ccccc21 | 116%
CC[C@H](Nc1ncnc2[nH]cnc12)c1nc2cccc(F)c2c(=O)n1-c1ccccc1 | 86.4%
CCCCCCCCCCCCCCCc1cccc(O)c1C(=O)O | 104%
Cc1nc(Nc2cnn(C3CCNCC3)c2)nc2c1N(C)C(=O)c1cc3ccccc3cc1N2C | 72.1%
CNC(=O)CN1CCC(Oc2cc3c(Nc4cccc(Cl)c4F)ncnc3cc2OC)CC1 | 78.3%
COc1cc(F)c(F)c(Nc2ccc(I)cc2F)c1NS(=O)(=O)C1(C[C@H](O)CO)CC1 | 111%
CN(C)Cc1cccc(N=C(c2ccccc2)c2c(O)[nH]c3cc(C(=O)N(C)C)ccc23)c1 | 88.5%
COc1cc2nccc(Oc3ccc(NC(=O)Nc4ccc(F)cc4F)c(F)c3)c2cc1OC | 87%
COc1nccc(-c2c(-c3ccc(F)cc3)ncn2[C@H]2CC[C@H](O)CC2)n1 | 75.4%
C=CC(=O)Nc1cccc(Nc2nc(Nc3ccc(N4CCN(C(C)=O)CC4)cc3OC)ncc2C(F)(F)F)c1 | 69.3%
N#C/C(=C(/N)Sc1ccc(N)cc1)c1ccccc1C(F)(F)F | 91.2%
CN([C@@H](Cc1ccc(OS(=O)(=O)c2cccc3cnccc23)cc1)C(=O)N1CCN(c2ccccc2)CC1)S(=O)(=O)c1cccc2cnccc12 | 76.4%
CC(C)(C)c1cnc(CSc2cnc(NC(=O)C3CCNCC3)s2)o1 | 8.03%
O=c1[nH]nc(Sc2ncc([N+](=O)[O-])s2)n1-c1ccc2c(c1)OCCO2 | 58.4%
C1=N/C2=N/c3ccc(OCCN4CCCC4)c(c3)COC/C=C/COCc3cccc(c3)C(=C1)N2 | 34.6%
COc1ccc2c(Oc3ccc(NC(=O)c4c(C)n(CC(C)(C)O)n(-c5ccccc5)c4=O)nc3)ccnc2c1 | 82.1%
Nc1cccc(-c2cc3c(Oc4cccc(O)c4)ncnc3[nH]2)c1 | 57.2%

For quick reference, copied from above (block 3):
target | remaining activity [%]
PIM2 (Homo sapiens, UniProt Q9P1W9) | 100
CSK (Homo sapiens, UniProt P41240) | 98.5
GSK3A (Homo sapiens, UniProt P49840) | 88.5
PRKCG (Homo sapiens, UniProt P05129) | 100
